# Results collected from several papers.
# By UniProt entry, the sequences of proteins in these tests, tags left out. Where a name states a change or a piece, a line headed by the entry shows the natural chain unless it says otherwise. Chains listed by the source or under a name are the forms on record and can include a tag or linker. Residues count along the entry.
# UniProt Q02294, whole entry, looked up: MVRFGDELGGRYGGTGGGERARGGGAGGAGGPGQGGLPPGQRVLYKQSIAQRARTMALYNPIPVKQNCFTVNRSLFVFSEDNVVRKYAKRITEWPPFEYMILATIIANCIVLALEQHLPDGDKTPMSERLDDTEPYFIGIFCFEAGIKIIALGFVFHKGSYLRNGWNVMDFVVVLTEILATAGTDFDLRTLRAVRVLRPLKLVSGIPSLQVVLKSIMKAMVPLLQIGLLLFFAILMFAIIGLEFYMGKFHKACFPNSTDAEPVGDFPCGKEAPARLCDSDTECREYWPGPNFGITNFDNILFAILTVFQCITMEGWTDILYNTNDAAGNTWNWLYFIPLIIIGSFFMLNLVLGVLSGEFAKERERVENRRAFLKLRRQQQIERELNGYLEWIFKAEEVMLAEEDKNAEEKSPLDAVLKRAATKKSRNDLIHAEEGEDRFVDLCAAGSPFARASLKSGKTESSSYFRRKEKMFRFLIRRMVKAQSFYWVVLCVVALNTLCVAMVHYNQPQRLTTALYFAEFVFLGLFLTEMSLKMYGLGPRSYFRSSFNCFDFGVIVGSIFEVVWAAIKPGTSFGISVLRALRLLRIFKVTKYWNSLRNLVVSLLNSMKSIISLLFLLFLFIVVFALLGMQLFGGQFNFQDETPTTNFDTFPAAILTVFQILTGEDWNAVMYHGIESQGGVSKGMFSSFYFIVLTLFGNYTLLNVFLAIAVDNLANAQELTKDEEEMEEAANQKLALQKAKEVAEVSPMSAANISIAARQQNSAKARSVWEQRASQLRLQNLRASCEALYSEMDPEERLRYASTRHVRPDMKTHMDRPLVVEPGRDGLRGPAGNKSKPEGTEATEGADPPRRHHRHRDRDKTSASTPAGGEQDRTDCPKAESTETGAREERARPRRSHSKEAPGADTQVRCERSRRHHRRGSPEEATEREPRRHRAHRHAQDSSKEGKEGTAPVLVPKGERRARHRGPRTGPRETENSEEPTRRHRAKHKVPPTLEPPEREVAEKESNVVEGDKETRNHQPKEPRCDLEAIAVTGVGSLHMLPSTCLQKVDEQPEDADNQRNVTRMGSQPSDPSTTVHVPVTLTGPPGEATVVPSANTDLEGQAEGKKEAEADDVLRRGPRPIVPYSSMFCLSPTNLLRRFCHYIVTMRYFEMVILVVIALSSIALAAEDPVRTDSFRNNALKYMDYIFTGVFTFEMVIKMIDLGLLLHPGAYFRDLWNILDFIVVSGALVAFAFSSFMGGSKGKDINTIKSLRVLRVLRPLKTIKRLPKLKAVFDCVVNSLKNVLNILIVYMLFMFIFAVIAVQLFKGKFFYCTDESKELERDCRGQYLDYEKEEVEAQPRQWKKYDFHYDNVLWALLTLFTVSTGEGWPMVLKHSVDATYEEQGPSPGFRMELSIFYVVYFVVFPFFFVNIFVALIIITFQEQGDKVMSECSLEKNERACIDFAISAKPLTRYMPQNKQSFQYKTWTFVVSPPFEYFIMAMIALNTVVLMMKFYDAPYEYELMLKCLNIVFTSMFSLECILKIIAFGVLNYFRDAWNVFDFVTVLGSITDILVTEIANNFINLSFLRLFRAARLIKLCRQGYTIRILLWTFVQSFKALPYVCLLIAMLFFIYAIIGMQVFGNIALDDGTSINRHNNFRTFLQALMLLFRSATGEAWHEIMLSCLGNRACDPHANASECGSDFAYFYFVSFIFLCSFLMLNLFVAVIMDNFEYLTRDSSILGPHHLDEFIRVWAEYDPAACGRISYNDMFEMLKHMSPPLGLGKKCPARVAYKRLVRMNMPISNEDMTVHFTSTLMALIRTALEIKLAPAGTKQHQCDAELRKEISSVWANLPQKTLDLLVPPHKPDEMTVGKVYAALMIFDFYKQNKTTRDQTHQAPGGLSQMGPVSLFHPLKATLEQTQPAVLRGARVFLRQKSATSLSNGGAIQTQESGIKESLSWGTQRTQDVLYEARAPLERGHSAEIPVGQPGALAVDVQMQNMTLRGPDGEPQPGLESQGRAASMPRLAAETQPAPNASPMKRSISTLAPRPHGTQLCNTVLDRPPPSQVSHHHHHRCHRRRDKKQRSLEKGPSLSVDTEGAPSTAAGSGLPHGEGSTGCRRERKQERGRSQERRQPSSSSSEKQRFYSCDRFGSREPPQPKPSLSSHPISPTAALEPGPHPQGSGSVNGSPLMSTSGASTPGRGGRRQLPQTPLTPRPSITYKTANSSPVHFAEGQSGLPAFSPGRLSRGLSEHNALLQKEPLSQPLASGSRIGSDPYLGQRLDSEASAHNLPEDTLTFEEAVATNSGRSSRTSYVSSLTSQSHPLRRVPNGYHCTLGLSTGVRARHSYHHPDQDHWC
# UniProt P08510, 1-655 with tags or gaps DEL6-46: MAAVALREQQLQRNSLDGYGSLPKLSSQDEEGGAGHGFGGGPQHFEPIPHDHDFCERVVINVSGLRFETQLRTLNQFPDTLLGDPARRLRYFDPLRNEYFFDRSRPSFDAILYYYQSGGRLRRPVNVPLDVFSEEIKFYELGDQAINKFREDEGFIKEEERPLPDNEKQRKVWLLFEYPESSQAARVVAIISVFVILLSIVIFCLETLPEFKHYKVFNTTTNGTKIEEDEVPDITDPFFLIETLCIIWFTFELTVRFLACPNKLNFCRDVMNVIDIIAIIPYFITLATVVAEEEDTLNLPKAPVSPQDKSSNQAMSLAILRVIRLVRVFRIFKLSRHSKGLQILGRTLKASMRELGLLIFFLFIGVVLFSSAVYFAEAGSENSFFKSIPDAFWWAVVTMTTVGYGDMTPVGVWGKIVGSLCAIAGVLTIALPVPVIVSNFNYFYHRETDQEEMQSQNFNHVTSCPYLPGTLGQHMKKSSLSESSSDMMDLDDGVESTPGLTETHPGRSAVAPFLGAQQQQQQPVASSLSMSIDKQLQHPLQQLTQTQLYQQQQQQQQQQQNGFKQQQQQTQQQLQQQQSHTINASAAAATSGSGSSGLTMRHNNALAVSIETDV
# UniProt P30926, whole entry, looked up: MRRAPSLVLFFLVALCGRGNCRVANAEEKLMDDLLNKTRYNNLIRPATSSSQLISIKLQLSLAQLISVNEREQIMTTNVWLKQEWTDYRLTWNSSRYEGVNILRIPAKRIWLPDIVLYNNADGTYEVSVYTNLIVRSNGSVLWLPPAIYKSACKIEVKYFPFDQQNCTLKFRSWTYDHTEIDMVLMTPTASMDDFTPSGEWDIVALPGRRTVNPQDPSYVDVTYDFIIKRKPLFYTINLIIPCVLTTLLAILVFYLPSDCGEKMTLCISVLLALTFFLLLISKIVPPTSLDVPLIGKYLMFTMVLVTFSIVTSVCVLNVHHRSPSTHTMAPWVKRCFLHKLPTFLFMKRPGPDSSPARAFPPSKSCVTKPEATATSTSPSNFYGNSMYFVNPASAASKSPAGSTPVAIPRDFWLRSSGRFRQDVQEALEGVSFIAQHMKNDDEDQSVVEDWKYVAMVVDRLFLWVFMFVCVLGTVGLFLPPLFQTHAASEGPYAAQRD
# UniProt P32297, whole entry, looked up: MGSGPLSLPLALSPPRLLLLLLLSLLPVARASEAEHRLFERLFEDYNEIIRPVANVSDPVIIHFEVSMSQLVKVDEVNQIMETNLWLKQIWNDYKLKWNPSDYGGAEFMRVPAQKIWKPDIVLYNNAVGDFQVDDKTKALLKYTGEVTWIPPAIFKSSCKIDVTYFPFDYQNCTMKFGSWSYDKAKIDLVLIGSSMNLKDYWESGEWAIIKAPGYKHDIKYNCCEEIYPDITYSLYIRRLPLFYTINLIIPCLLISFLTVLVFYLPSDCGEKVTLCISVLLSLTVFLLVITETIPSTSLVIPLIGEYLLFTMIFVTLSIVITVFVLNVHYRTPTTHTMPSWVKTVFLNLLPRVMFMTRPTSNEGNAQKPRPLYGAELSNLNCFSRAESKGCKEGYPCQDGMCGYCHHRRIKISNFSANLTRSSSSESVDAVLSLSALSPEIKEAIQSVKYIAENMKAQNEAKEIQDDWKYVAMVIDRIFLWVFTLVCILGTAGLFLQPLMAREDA
# UniProt P15309, 33-386 limits assumed: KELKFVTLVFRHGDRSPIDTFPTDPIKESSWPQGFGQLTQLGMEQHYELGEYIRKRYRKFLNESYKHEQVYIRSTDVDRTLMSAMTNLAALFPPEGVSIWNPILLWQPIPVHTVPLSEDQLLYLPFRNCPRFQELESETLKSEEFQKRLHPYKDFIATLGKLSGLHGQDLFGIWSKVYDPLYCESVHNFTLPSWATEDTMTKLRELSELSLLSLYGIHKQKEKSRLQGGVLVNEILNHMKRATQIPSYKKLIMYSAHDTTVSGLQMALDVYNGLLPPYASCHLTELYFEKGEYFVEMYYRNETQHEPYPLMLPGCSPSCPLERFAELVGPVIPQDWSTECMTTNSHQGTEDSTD
# UniProt P37136, 32-614 limits assumed: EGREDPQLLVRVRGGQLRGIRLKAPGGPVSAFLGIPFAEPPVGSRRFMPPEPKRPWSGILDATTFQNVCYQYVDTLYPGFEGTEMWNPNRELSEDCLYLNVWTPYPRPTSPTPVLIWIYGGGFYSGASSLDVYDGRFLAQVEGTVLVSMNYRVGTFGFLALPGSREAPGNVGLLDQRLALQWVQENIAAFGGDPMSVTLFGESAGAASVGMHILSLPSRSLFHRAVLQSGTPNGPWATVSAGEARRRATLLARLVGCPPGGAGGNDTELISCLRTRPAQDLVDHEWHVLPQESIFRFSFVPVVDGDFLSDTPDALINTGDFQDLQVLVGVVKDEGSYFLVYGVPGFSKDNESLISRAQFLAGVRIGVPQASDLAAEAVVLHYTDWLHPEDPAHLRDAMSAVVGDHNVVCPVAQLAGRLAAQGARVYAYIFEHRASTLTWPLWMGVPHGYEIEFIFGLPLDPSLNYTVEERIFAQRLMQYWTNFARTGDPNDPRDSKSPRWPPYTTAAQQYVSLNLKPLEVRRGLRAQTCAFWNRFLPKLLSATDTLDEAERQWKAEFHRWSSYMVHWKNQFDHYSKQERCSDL
# Compare with care: the assays were run in different laboratories. ± gives the spread as reported.
# Cacna1b with α2δ, β3 subunits: Voltage-dependent N-type calcium channel subunit alpha-1B, with α2δ, β3 subunits (Cacna1b, Rattus norvegicus, UniProt Q02294)
SMILES,target,assay,system,setting,measurement,result
CC[C@H](C)[C@@H]1NC(=O)[C@H](CCCNC(=N)N)NC(=O)[C@@H](N)CSSC[C@@H]2NC(=O)[C@@H]3CSSC[C@@H](C(=O)N[C@H](C(=O)O)C(C)C)NC(=O)[C@H](CCCCN)NC(=O)[C@H](CC(N)=O)NC(=O)[C@H](Cc4ccccc4)NC(=O)[C@H](CCCNC(=N)N)NC(=O)[C@H](CC(N)=O)NC(=O)[C@H](CSSC[C@H](NC(=O)[C@H](CCCCN)NC(=O)[C@H](CCC(N)=O)NC(=O)[C@H](CC(N)=O)NC(=O)[C@@H]4C[C@@H](O)CN4C1=O)C(=O)N[C@@H](Cc1ccccc1)C(=O)N[C@@H](CCC(N)=O)C(=O)N[C@@H](Cc1c[nH]cn1)C(=O)N[C@@H](CC(C)C)C(=O)N[C@@H](CC(=O)O)C(=O)N[C@@H](CC(=O)O)C(=O)N3)NC(=O)[C@H](CCCCN)NC(=O)[C@H](CCCNC(=N)N)NC(=O)[C@H](CO)NC2=O,"Sh (Drosophila melanogaster, UniProt P08510, del6-46)","potassium current, outside-out patch clamp",,"500 nM, -40 mV, 150 ms, added: TEA 1 mM",blocked channels,~60%
CNc1nc(N2CCNCC2)c2sc3nc(N4CCOCC4)ccc3c2n1,"Beta-glucuronidase (bglR, Clostridium perfringens, UniProt Q8XP19)","enzyme activity, inhibitor",,,IC50,30 ± 8 nM
CC[C@H](C)[C@@H]1NC(=O)[C@H](CCC(=O)O)NC(=O)[C@@H]2CCCN2C(=O)[C@H](Cc2c[nH]cn2)NC(=O)[C@H](CC(=O)O)NC(=O)[C@H](C(C)C)NC(=O)[C@H](CC(N)=O)NC(=O)[C@@H]2CSSC[C@H](NC(=O)[C@H](CCC(N)=O)NC(=O)[C@@H]3CCCN3C(=O)[C@@H](N)CCCNC(=N)N)C(=O)N[C@@H](CSSC[C@@H](C(N)=O)NC1=O)C(=O)N[C@@H](CO)C(=O)N[C@@H](Cc1c[nH]cn1)C(=O)N1CCC[C@H]1C(=O)N[C@@H](C)C(=O)N2,"Neuronal acetylcholine receptor; alpha3/beta4 (Homo sapiens, UniProt P30926+P32297)","ACh-evoked current, antagonist, two-electrode voltage clamp",Xenopus oocytes,"5 min, pH 7.4, holding potential -70 mV",IC50,2100 ± 200 nM
Oc1cc(Cl)ccc1Oc1ccccc1,"Enoyl-ACP reductase FabI (Bacillus anthracis, UniProt A0A6L8PBX8)",inhibitor,,,IC50,500 ± 100 nM
CC[C@H](C)[C@H](NC(=O)[C@H](C)NC(=O)[C@H](CCC(=O)O)NC(=O)[C@H](CCC(=O)O)NC(=O)[C@H](CC(C)C)NC(=O)[C@H](CCCCN)NC(=O)[C@H](CCCCN)NC(=O)[C@H](CCSC)NC(=O)[C@H](CCC(=O)O)NC(=O)[C@H](Cc1ccc(O)cc1)NC(=O)[C@H](CCC(=O)O)NC(=O)[C@H](CC(C)C)NC(=O)[C@H](CC(=O)O)NC(=O)[C@H](CC(C)C)NC(=O)[C@H](Cc1ccccc1)NC(=O)[C@@H](NC(=O)[C@@H](NC(=O)[C@H](CC(N)=O)NC(=O)[C@@H](NC(=O)[C@H](CCC(N)=O)NC(=O)[C@H](CC(=O)O)NC(=O)[C@H](CC(C)C)NC(=O)[C@@H](N)CO)[C@@H](C)CC)C(C)C)[C@@H](C)O)C(=O)N[C@@H](CCCCN)C(=O)N[C@@H](CCCCN)C(=O)N[C@@H](CC(C)C)C(=O)N[C@@H](CCC(=O)O)C(=O)N[C@@H](CCC(=O)O)C(=O)N[C@@H](CO)C(=O)N[C@@H](Cc1ccc(O)cc1)C(=O)N[C@H](C(=O)N[C@@H](CC(=O)O)C(=O)N[C@@H](CC(C)C)C(=O)N[C@@H](CCCCN)C(=O)N[C@@H](CCC(=O)O)C(=O)N[C@@H](CC(C)C)C(=O)O)[C@@H](C)CC,"Spike glycoprotein (MERS-CoV, UniProt K9N5Q8)","cell-cell fusion, inhibitor, luciferase fusion","293T donor, Huh-7 target","16 h, 37 °C",IC50,1660 nM
C[C@@H]1NC(=O)[C@@H]2CSSC[C@@H]3NC(=O)[C@H](CO)NC(=O)CNC(=O)[C@H]([C@@H](C)O)NC(=O)[C@H](CSSC[C@H](N)C(=O)N[C@@H](CCCCN)C(=O)N[C@@H](CCCNC(=N)N)C(=O)N[C@@H](CCCCN)C(=O)NCC(=O)N[C@@H](CO)C(=O)N[C@@H](CO)C(=O)N2)NC(=O)[C@H](CSSC[C@@H](C(N)=O)NC(=O)[C@H](CCCCN)NC(=O)CNC(=O)[C@H](CC(N)=O)NC(=O)[C@H](CCCNC(=N)N)NC3=O)NC(=O)[C@H](CC(=O)O)NC(=O)[C@H](Cc2ccc(O)cc2)NC(=O)[C@H](CO)NC(=O)[C@H]([C@@H](C)O)NC(=O)[C@H](CCCNC(=N)N)NC1=O,"Cacna1b with α2δ, β3 subunits","Ba2+ current, inhibitor, whole-cell patch clamp",HEK293 expressing α2δ and β3,"22 °C, added: Ba2+ 20 mM",IC50,418 nM
Cc1ccc(-c2nnc3n2CC(CI)S3)cc1 (stereo not drawn),"ACP3 (Homo sapiens, UniProt P15309)","enzyme activity, inhibitor",,"pH 7.0, 1% DMSO, added: DiFMUP 59 µM",IC50,19300 nM
C[C@@H](O)[C@@H]1NC(=O)[C@@H]2CSSC[C@H](N)C(=O)N[C@@H](CCCCN)C(=O)N[C@@H](CCCNC(=N)N)C(=O)N[C@@H](CCCCN)C(=O)NCC(=O)N[C@@H](CO)C(=O)N[C@@H](CO)C(=O)N[C@H]3CSSC[C@H](NC(=O)[C@H](CO)NC(=O)CNC1=O)C(=O)N[C@@H](CCCNC(=N)N)C(=O)N[C@@H](CC(N)=O)C(=O)NCC(=O)N[C@@H](CCCCN)C(=O)N[C@H](C(N)=O)CSSC[C@H](NC(=O)[C@H](CC(=O)O)NC(=O)[C@H](Cc1ccc(O)cc1)NC(=O)[C@H](CO)NC(=O)[C@H]([C@@H](C)O)NC(=O)[C@H](CCCNC(=N)N)NC(=O)[C@H](CCCNC(=N)N)NC3=O)C(=O)N2,"Cacna1b with α2δ, β3 subunits","Ba2+ current, inhibitor, whole-cell patch clamp",HEK293 expressing α2δ and β3,"22 °C, added: Ba2+ 20 mM",IC50,89 nM
CCOP(=O)(OCC)ON1C(=O)c2cccc3cccc(c23)C1=O,"Ache (Rattus norvegicus, UniProt P37136)","enzyme activity, inhibitor","rat, postnatal day 12, rat brain homogenate","15 min, 37 °C",IC50,75 nM
CC[C@H](C)[C@H](NC(=O)[C@H](C)NC(=O)[C@H](CCC(=O)O)NC(=O)[C@H](CCC(=O)O)NC(=O)[C@H](CC(C)C)NC(=O)[C@H](CCCCN)NC(=O)[C@H](CCCCN)NC(=O)[C@H](CCSC)NC(=O)[C@H](CCC(=O)O)NC(=O)[C@H](Cc1ccc(O)cc1)NC(=O)[C@H](CCC(=O)O)NC(=O)[C@H](CC(C)C)NC(=O)[C@H](CC(=O)O)NC(=O)[C@H](CC(C)C)NC(=O)[C@H](Cc1ccccc1)NC(=O)[C@H](Cc1ccccc1)NC(=O)[C@@H](NC(=O)[C@H](CC(N)=O)NC(=O)[C@@H](NC(=O)[C@H](CCC(N)=O)NC(=O)[C@H](CC(=O)O)NC(=O)[C@H](CC(C)C)NC(=O)[C@@H](N)CO)[C@@H](C)CC)C(C)C)C(=O)N[C@@H](CCCCN)C(=O)N[C@@H](CCCCN)C(=O)N[C@@H](CC(C)C)C(=O)N[C@@H](CCC(=O)O)C(=O)N[C@@H](CCC(=O)O)C(=O)N[C@@H](CO)C(=O)N[C@@H](Cc1ccc(O)cc1)C(=O)N[C@H](C(=O)N[C@@H](CC(=O)O)C(=O)N[C@@H](CC(C)C)C(=O)N[C@@H](CCCCN)C(=O)N[C@@H](CCC(=O)O)C(=O)N[C@@H](CC(C)C)C(=O)O)[C@@H](C)CC,"Spike glycoprotein (Severe acute respiratory syndrome coronavirus, UniProt P59594)","cell-cell fusion, inhibitor, luciferase fusion","293T donor, Huh-7 target","16 h, 37 °C",IC50,31.9 nM
CC(=O)Nc1nc2ccccc2n1Cc1ccc(Cl)cc1,"Enoyl-[acyl-carrier-protein] reductase [NADH] (Francisella tularensis subsp. tularensis, UniProt Q5NGQ3)",,,,IC50,> 100000 nM
CC[C@H](C)[C@H](NC(=O)[C@H](C)NC(=O)[C@H](CCC(=O)O)NC(=O)[C@H](CCC(=O)O)NC(=O)[C@H](CC(C)C)NC(=O)[C@H](CCCCN)NC(=O)[C@H](CCCCN)NC(=O)[C@H](CCSC)NC(=O)[C@H](CCC(=O)O)NC(=O)[C@H](Cc1ccc(O)cc1)NC(=O)[C@H](CCC(=O)O)NC(=O)[C@H](CC(C)C)NC(=O)[C@H](CC(=O)O)NC(=O)[C@H](CC(C)C)NC(=O)[C@H](Cc1ccccc1)NC(=O)[C@H](Cc1ccccc1)NC(=O)[C@@H](NC(=O)[C@H](CC(N)=O)NC(=O)[C@@H](NC(=O)[C@H](CCC(N)=O)NC(=O)[C@H](CC(=O)O)NC(=O)[C@H](CC(C)C)NC(=O)[C@@H](N)CO)[C@@H](C)CC)C(C)C)C(=O)N[C@@H](CCCCN)C(=O)N[C@@H](CCCCN)C(=O)N[C@@H](CC(C)C)C(=O)N[C@@H](CCC(=O)O)C(=O)N[C@@H](CCC(=O)O)C(=O)N[C@H](C(=O)N[C@@H](Cc1ccc(O)cc1)C(=O)N[C@H](C(=O)N[C@@H](CC(=O)O)C(=O)N[C@@H](CC(C)C)C(=O)N[C@@H](CCCCN)C(=O)N[C@@H](CCC(=O)O)C(=O)N[C@@H](CC(C)C)C(=O)O)[C@@H](C)CC)[C@@H](C)O,"Spike glycoprotein (Severe acute respiratory syndrome coronavirus, UniProt P59594)","cell-cell fusion, inhibitor, luciferase fusion","293T donor, Huh-7 target","16 h, 37 °C, dual mutations",IC50,8.85 nM
CS(=O)(=O)/C=C/CNC(=O)c1cc(-c2ccccc2)n[nH]1,"Polyprotein P1234, nsP2 protease (Chikungunya virus, UniProt Q5XXP4)",FRET,,,IC50,120 ± 5 nM
CN1CCN(C(c2ccccc2)c2ccc(Cl)cc2)CC1 (stereo not drawn),"Replicase polyprotein 1ab, nsp14 (rep, Severe acute respiratory syndrome-related coronavirus, UniProt P0C6X7)","enzyme activity, inhibitor",,,IC50,no inhibition
CC[C@H](C)[C@H](NC(=O)[C@H](C)NC(=O)[C@H](CCC(=O)O)NC(=O)[C@H](CCC(=O)O)NC(=O)[C@H](CC(C)C)NC(=O)[C@H](CCCCN)NC(=O)[C@H](CCCCN)NC(=O)[C@H](CCSC)NC(=O)[C@H](CCC(=O)O)NC(=O)[C@H](Cc1ccc(O)cc1)NC(=O)[C@H](CCC(=O)O)NC(=O)[C@H](CC(C)C)NC(=O)[C@H](CC(=O)O)NC(=O)[C@H](CC(C)C)NC(=O)[C@H](Cc1ccccc1)NC(=O)[C@H](Cc1ccc(O)cc1)NC(=O)[C@@H](NC(=O)[C@H](CC(N)=O)NC(=O)[C@@H](NC(=O)[C@H](CCC(N)=O)NC(=O)[C@H](CC(=O)O)NC(=O)[C@H](CC(C)C)NC(=O)[C@@H](N)CO)[C@@H](C)CC)C(C)C)C(=O)N[C@@H](CCCCN)C(=O)N[C@@H](CCCCN)C(=O)N[C@@H](CC(C)C)C(=O)N[C@@H](CCC(=O)O)C(=O)N[C@@H](CCC(=O)O)C(=O)N[C@H](C(=O)N[C@@H](Cc1ccc(O)cc1)C(=O)N[C@H](C(=O)N[C@@H](CC(=O)O)C(=O)N[C@@H](CC(C)C)C(=O)N[C@@H](CCCCN)C(=O)N[C@@H](CCC(=O)O)C(=O)N[C@@H](CC(C)C)C(=O)O)[C@@H](C)CC)[C@@H](C)O,"Spike glycoprotein (Severe acute respiratory syndrome coronavirus, UniProt P59594)","cell-cell fusion, inhibitor, luciferase fusion","293T donor, Huh-7 target","16 h, 37 °C, dual mutations",IC50,14.1 nM
O=C(O)C(O)=CC(=O)c1ccc2cc(O)c(O)cc2c1,"Nucleoprotein, exonuclease domain (N, Lymphocytic choriomeningitis virus, UniProt P09992)","exonuclease activity, inhibitor",,,IC50,5630 ± 350 nM
CC[C@H](C)[C@H](NC(=O)[C@H](C)NC(=O)[C@H](CCC(=O)O)NC(=O)[C@H](CCC(=O)O)NC(=O)[C@H](CC(C)C)NC(=O)[C@H](CCCCN)NC(=O)[C@H](CCCCN)NC(=O)[C@H](CCSC)NC(=O)[C@H](CCC(=O)O)NC(=O)[C@H](Cc1ccc(O)cc1)NC(=O)[C@H](CCC(=O)O)NC(=O)[C@H](CC(C)C)NC(=O)[C@H](CC(=O)O)NC(=O)[C@H](CC(C)C)NC(=O)[C@H](Cc1ccccc1)NC(=O)[C@@H](NC(=O)[C@@H](NC(=O)[C@H](CC(N)=O)NC(=O)[C@@H](NC(=O)[C@H](CCC(N)=O)NC(=O)[C@H](CC(=O)O)NC(=O)[C@H](CC(C)C)NC(=O)[C@@H](N)CO)[C@@H](C)CC)C(C)C)[C@@H](C)O)C(=O)N[C@@H](CCCCN)C(=O)N[C@@H](CCCCN)C(=O)N[C@@H](CC(C)C)C(=O)N[C@@H](CCC(=O)O)C(=O)N[C@@H](CCC(=O)O)C(=O)N[C@@H](C)C(=O)N[C@@H](Cc1ccc(O)cc1)C(=O)N[C@H](C(=O)N[C@@H](CC(=O)O)C(=O)N[C@@H](CC(C)C)C(=O)N[C@@H](CCCCN)C(=O)N[C@@H](CCC(=O)O)C(=O)N[C@@H](CC(C)C)C(=O)O)[C@@H](C)CC,"Spike glycoprotein (Severe acute respiratory syndrome coronavirus, UniProt P59594)","cell-cell fusion, inhibitor, luciferase fusion","293T donor, Huh-7 target","16 h, 37 °C",IC50,152 nM
O=c1c(OCCO)c(SSc2cnn(-c3ccccc3)c(=O)c2OCCO)cnn1-c1ccccc1,"Sortase A (Bacillus anthracis str. H9401, UniProt P0DPQ5)",inhibitor,Bacillus anthracis,,IC50,330 ± 140 nM

# A few entries again:
SMILES,target,assay,system,setting,measurement,result
O=c1c(OCCO)c(SSc2cnn(-c3ccccc3)c(=O)c2OCCO)cnn1-c1ccccc1,"Sortase A (Bacillus anthracis str. H9401, UniProt P0DPQ5)",inhibitor,Bacillus anthracis,,IC50,330 ± 140 nM
CNc1nc(N2CCNCC2)c2sc3nc(N4CCOCC4)ccc3c2n1,"Beta-glucuronidase (bglR, Clostridium perfringens, UniProt Q8XP19)","enzyme activity, inhibitor",,,IC50,30 ± 8 nM
